Published values of several laboratories.
Lines come from different studies, so protocols differ.
Oprk1: Kappa-type opioid receptor (Oprk1, Mus musculus, UniProt P33534)
SIGMAR1: Sigma non-opioid intracellular receptor 1 (SIGMAR1, Cavia porcellus, UniProt Q60492)

Sequences of proteins named here, by UniProt entry; tags and fusion partners are left off. Residues count along the entry.
UniProt Q60492, whole entry: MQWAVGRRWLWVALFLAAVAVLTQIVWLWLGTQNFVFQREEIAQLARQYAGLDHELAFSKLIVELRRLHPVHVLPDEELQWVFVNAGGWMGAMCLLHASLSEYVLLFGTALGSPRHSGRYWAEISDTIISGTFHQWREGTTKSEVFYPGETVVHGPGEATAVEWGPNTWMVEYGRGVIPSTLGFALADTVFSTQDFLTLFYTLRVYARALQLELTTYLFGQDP
UniProt Q8N8U2, 1-75 limits assumed: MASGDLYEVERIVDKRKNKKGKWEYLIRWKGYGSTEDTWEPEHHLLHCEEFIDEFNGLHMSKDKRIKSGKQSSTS
UniProt Q9Y251, whole entry, looked up: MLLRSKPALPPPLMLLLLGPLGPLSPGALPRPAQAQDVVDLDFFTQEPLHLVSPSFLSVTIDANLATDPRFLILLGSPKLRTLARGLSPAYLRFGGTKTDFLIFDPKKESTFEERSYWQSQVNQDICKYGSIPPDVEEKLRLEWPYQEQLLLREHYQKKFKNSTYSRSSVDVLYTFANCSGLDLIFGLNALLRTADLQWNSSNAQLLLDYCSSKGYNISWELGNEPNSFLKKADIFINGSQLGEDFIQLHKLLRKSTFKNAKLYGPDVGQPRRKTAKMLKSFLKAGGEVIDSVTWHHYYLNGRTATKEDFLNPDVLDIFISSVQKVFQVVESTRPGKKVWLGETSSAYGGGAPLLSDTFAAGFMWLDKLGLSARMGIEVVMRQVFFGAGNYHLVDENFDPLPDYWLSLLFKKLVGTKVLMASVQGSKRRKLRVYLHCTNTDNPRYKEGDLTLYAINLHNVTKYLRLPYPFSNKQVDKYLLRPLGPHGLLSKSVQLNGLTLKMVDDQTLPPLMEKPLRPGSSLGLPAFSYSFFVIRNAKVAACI
UniProt Q14500, whole entry: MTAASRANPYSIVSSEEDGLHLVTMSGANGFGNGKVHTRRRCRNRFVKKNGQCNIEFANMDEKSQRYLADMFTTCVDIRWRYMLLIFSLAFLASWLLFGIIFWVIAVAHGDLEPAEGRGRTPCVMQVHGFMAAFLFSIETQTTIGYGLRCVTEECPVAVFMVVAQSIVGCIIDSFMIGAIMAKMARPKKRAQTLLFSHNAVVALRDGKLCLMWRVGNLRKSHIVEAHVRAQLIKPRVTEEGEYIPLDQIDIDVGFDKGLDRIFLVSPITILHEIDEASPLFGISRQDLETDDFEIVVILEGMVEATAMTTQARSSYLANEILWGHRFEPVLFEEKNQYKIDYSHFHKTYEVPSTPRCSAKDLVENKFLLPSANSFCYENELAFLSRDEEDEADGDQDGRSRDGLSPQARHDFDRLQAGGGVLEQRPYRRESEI
UniProt P42574, whole entry, looked up: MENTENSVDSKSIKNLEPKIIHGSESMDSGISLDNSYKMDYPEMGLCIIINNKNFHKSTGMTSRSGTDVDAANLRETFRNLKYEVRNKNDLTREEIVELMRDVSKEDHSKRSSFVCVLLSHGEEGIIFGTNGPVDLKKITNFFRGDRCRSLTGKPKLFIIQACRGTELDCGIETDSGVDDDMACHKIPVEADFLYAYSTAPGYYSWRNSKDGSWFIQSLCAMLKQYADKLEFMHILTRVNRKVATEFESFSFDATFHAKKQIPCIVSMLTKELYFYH
UniProt Q6ZMT4, 92-488 limits assumed: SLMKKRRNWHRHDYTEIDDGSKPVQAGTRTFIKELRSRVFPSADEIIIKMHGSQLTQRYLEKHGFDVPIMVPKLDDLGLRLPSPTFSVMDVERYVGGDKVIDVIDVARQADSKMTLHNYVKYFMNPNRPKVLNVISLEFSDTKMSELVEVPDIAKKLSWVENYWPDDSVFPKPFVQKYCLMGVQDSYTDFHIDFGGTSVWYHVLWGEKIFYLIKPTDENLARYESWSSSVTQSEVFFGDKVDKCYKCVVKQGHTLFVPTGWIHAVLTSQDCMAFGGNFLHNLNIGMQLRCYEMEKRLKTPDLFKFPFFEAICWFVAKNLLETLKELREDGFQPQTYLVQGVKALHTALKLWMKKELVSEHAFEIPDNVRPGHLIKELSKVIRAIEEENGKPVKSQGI
UniProt P21554, whole entry: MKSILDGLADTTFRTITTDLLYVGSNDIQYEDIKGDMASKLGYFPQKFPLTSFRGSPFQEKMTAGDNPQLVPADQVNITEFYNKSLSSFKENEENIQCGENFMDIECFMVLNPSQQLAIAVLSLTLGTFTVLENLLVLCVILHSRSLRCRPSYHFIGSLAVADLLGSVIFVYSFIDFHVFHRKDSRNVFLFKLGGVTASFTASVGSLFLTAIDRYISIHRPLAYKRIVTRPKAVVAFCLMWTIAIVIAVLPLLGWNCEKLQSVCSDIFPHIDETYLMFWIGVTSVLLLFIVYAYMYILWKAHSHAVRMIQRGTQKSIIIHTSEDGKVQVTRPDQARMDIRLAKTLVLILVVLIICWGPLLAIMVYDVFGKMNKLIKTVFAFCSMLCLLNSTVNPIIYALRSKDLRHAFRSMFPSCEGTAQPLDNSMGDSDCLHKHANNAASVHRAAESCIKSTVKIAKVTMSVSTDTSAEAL

`CCN(CCCC[C@H](NC(=O)[C@H](Cc1ccccc1)NC(=O)[C@H](C)NC(=O)[C@H](Cc1ccccc1)NC(=O)C1CCCCC1)C(=O)N[C@H](C(N)=O)[C@@H](C)O)C(C)C` has a selectivity ratio of 5 fold (CDYL2 (Homo sapiens, UniProt Q8N8U2); binding, isothermal titration calorimetry; relative to: CBX7 Kd over target Kd).
With `N#Cc1cc(C(=O)N[C@@H]2CC[C@@]3(O)[C@H]4Cc5ccc(O)c6c5[C@@]3(CCN4CC3CC3)[C@H]2O6)ccn1` the selectivity ratio was 579 (Oprk1; radioligand binding; CHO; together with: [3H]diprenorphine; relative to: Ki δ over Ki κ).
`O=C([C@H]1O[C@H](O[C@H]2[C@H](O[C@@H]3O[C@H](C(=O)N4CCN(c5ncccn5)CC4)[C@@H](O[C@H]4O[C@@H](CNS(=O)(=O)O)[C@@H](OCc5ccc6ccccc6c5)[C@H](OCc5ccc6ccccc6c5)[C@H]4NS(=O)(=O)O)[C@H]3OCc3ccc4ccccc4c3)[C@@H](OCc3ccc4ccccc4c3)[C@H](NS(=O)(=O)O)C[C@@H]2NS(=O)(=O)O)[C@H](NS(=O)(=O)O)[C@@H](OCc2ccc3ccccc3c2)[C@@H]1OCc1ccc2ccccc2c1)N1CCN(c2ncccn2)CC1` has a selectivity ratio of greater than 100 fold (Heparanase (HPSE, Homo sapiens, UniProt Q9Y251); TR-FRET; relative to: PF4 IC50 over heparanase IC50).
`O=C(c1ccccc1)C1CCN([C@@H]2Cc3ccccc3C[C@H]2O)CC1` (relative stereo) gave a selectivity ratio of 51.1 (SIGMAR1; binding; relative to: Ki sigma-1 over Ki VAChT).
With `O=C(c1ccc(O)c(Sc2ccccc2)c1)N1Cc2ccccc2C1` the selectivity ratio was greater than 20 fold (HSP90AA1 (Homo sapiens, UniProt P07900); fluorescence polarization; together with: FITC-geldanamycin; relative to: IC50 Hsp90beta over Hsp90alpha).
`CC1CCN(Cc2cc(Cl)c3cccnc3c2O)CC1` gave a selectivity ratio of greater than 7 fold (KCNJ12 (Homo sapiens, UniProt Q14500); inhibitor, thallium flux; relative to: Kir7.1 over KCNJ12).
With `O=C(c1ccc(Br)cc1)C1CCN([C@@H]2Cc3ccccc3C[C@H]2O)CC1` (relative stereo) the selectivity ratio was 1190 (SIGMAR1; binding; relative to: Ki sigma-1 over Ki VAChT).
`[N-]=[N+]=CC(=O)[C@H](Cc1cccc([N+](=O)[O-])c1)NC(=O)OCc1ccccc1` gave a selectivity ratio of greater than 21 fold (Caspase-3 (CASP3, Homo sapiens, UniProt P42574); relative to: IC50 caspase-3 over IC50 streptopain).
`Cc1cc(C(=O)N[C@@H]2CC[C@@]3(O)[C@H]4Cc5ccc(O)c6c5[C@@]3(CCN4CC3CC3)[C@H]2O6)ccn1` gave a selectivity ratio of 0.67 (Oprk1; radioligand binding; CHO cell membranes; together with: [3H]diprenorphine; relative to: Ki mu receptor over Ki kappa receptor).
The selectivity ratio of `COc1cc2c(N(C)C)nc(NCCCN(C)C)nc2cc1OCCCCCN` is reported as 35 (Lysine-specific demethylase 7A, Jumonji domain (KDM7A, Homo sapiens, UniProt Q6ZMT4); enzyme activity; relative to: apparent Ki KDM7A over EHMT1).
With `O=C(N[C@@H]1CC[C@@]2(O)[C@H]3Cc4ccc(O)c5c4[C@@]2(CCN3CC2CC2)[C@H]1O5)c1ccnc(Br)c1` the selectivity ratio was 965 (Oprk1; radioligand binding; CHO; together with: [3H]diprenorphine; relative to: Ki δ over Ki κ).
The selectivity ratio of `O=C(CC1CCCC1)NC1CCN(c2ncnc3c2nc(-c2ccccc2Cl)n3-c2ccc(Cl)cc2)CC1` is reported as 280 (CNR1 (Homo sapiens, UniProt P21554); binding, radioligand displacement; CHO cell membranes; together with: [3H]CP55940; relative to: Ki CB2 over Ki CB1).

Excerpt of the above:
With `O=C(c1ccc(O)c(Sc2ccccc2)c1)N1Cc2ccccc2C1` the selectivity ratio was greater than 20 fold (HSP90AA1 (Homo sapiens, UniProt P07900); fluorescence polarization; together with: FITC-geldanamycin; relative to: IC50 Hsp90beta over Hsp90alpha).
